Results collected from several papers.
Parts stem from different laboratories: compare values within a part only. Changes are numbered by the printed parent chain.

Set 1
Target: RNA binding protein fox-1 homolog 2, RRM domain, GST-SBP tag (RBFOX2, Homo sapiens, UniProt O43251-10, residues 100-194)
Technique: RNA Bind-n-Seq
Molecule type: RNA
Medium: in vitro
Tested at: 365 nM
Setting: natural RNA segment, single round, ends assumed
Reference: no-protein control
Direction: higher = stronger binding
Shared flanks, not repeated: GGGAGUUCUACAGUCCGACGAUC … UGGAAUUCUCGGGUGCCAA
Target sequence (chain): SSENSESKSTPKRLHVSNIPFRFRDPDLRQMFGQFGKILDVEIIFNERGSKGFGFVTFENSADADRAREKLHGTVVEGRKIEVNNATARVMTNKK
Under “RBNS enrichment (R)”, `GGCUGGAGUUGCUGUGGGGACUGAUUUUCUGGGUGGGGAAGCAGCCAUCUAUUCUUGCAGCCAUCUCAGCCAGGGUCUAUGUCUUAGGACCUUCCUCCGGCCUUCCAUGA` is recorded as 0.627.
For `AGUAAUGCCAUUGCCGCCGUCAAGCAGUCACAGGUCACUGAAGAGGAGGCAGCUGCUGCUCAGACGGAGGGGCCUUCAACACCAUCUAGUUUUCCAGCCCAGGAAGAACA`, “RBNS enrichment (R)” read 0.282.
`GUCGCACUAACGCUCUCGUGGUUGCUCGACUGUUGUAUCUGUGAUACAUUAUCCGACUAAGGACUCUGGGCUGGCAGGGCCUUCUGCCGGGAAAGCUAGAAACACUAGGU` — result for “RBNS enrichment (R)”: 0.22.
`AACUAAACAAGUUUGUGUUUUUUAAACCUUGGGCAUUUCAGAGAAAGAGCUGGUCUGGAGUGUCUCCUCACAGUGACCUCUGAGGCCUCAGAAUAGCCUGCCUAAUAAGA`: “RBNS enrichment (R)” 0.542.
`UGAGCCCCCCAAUCCUCCUCUGUCUUCCAGCCAACCCACAAAGCUGAAUAUAUGCAAUAUCCGUCCGUCUGUCUGGGUCAAGCUCAGCUGUGGGGAGUCCCAGUGGUGGA` — result for “RBNS enrichment (R)”: 0.952.
`GCAGUGCAGCACCGGCCCAGGGCAUCACUAGACAGGCCCUAAUUAAGUUUUUUUUAAAAAGCCUGUGUAUUUAUUUUAGAAUCAUGUUUUUCUGUAUAUUAACUUGGGGG` — result for “RBNS enrichment (R)”: 0.806.
For `UGUGCUUGUUCCAAAUGAGCAGCUGGCAUCCGAGUGGUGUCCUGUGUGGGCUGAUAGUUGAUCACACAUUGUGCUUUUGAUUUUUGCAUUUGGUGAUGAAUAUUUUAUAC`, “RBNS enrichment (R)” read 0.531.
Under “RBNS enrichment (R)”, `CUGGUUAAACUGCAGUGAUACAUUUAGGUGGGUGGGGUCAAGGCAUAUGUGGCCUCCGGGAGACACCUGCUUGGAAGGAGGCAGUGAUGGAGAUAGAGCCCCACUCUGAG` is recorded as 1.26.

Set 2
Target: CCND1, cyclin fold, Cln2 fusion (human)
Technique: yeast growth competition, sequencing
Medium: yeast
Setting: weak parent motif
Reference: not given
Direction: higher = stronger binding
Starting sequence: ANKRD17 docking peptide (human); PSVRRQLFVTVVK
Under “normalised enrichment score”, `V11A` is recorded as 0.594.
`S2A`: “normalised enrichment score” 0.296.
`R5A`: “normalised enrichment score” 0.735.
`R5K F8L`: “normalised enrichment score” 0.541.
`R5A L7A` — result for “normalised enrichment score”: -0.127.
Under “normalised enrichment score”, `Q6A` is recorded as -0.179.
For `T10A`, “normalised enrichment score” read 0.796.
`F8A` — result for “normalised enrichment score”: 0.226.
Under “normalised enrichment score”, `F8L` is recorded as -0.00898.
`P1A`: “normalised enrichment score” 0.318.

Set 3
Target: Ras GTPase-activating protein-binding protein 1, full length (G3BP1, Homo sapiens, UniProt Q13283)
UniProt Q13283, sequence (whole entry, looked up): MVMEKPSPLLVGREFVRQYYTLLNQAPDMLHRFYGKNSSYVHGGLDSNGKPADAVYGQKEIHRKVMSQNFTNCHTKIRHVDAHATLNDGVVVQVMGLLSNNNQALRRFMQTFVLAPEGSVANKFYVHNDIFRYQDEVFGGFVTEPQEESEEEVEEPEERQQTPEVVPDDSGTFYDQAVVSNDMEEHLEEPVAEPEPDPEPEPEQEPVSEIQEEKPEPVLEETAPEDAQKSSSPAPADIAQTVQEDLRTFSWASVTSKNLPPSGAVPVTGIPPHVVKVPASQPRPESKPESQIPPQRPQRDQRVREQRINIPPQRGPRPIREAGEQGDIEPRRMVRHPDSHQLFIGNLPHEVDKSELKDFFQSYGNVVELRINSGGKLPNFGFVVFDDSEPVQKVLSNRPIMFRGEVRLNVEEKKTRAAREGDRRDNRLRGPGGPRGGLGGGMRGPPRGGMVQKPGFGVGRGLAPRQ
Technique: RNA Bind-n-Seq
Molecule type: RNA
Medium: in vitro
Tested at: 200 nM
Setting: whole 134-nt RNA, ends assumed
Added: 150 mM LiCl
Reference: input library
Direction: higher = stronger binding
All molecules: 7-deaza-guanosine replaces G
Shared flanks, not repeated: GGGAGUUCUACAGUCCGACGAUC … UGGAAUUCUCGGGUGUCAAGG
The log2 enrichment of `CACAGACAACACGCACCCACACAGACACAGAGGGAAGGGGUUGGGAUGGGGACAGGGUGCACAACAGGGCGGGGUAGGACCCCAGCCCCU` is reported as 0.138.
For `UUGCAGAUGAGCUUAUGGGGGGCAAUCUUAAAAAGUCCACAGCAGAUGCAUCCGGCUCGAGGGGCCAUCAGCUUUGAAUAAAUGCUUGUU`, the log2 enrichment was -1.37.
With `CAAGUCCUGUGCUACACAUCGUAUGUACCGAAUCGGGAAAAAAAGGGUGGGAGGGAAAGUAUUAUGUUACGCCGUUCGGAUCUGCACUUC` the log2 enrichment was -0.172.
For `GUGCUACACAUCGUAUGUACCGAAUCGGGGUUUUUUUGGGGAAAAAAAGGGGAAAAAAAGGGGAAAGUAUUAUGUUACGCCGUUCGGAUC`, the log2 enrichment was -1.1.
`CUGUGCUACACAUCGUAUGUACCGAAUCGGAAAAAAAGGGAAAAAAAGGGAAAAAAAGGGGAAAGUAUUAUGUUACGCCGUUCGGAUCUG` has a log2 enrichment of -0.146.
With `UCAAGUCCUGUGCUACACAUCGUAUGUACCGAAUCGGAAGGGGAAGGGGAAGGGGAAAGUAUUAUGUUACGCCGUUCGGAUCUGCACUUC` the log2 enrichment was 0.132.
The log2 enrichment of `UCAAGUCCUGUGCUACACAUCGUAUGUACCGAAUCGGGUUUGGUUUGGGUUUGGAAAGUAUUAUGUUACGCCGUUCGGAUCUGCACUUCC` is reported as -0.427.
For `UGGCCCUGGUGGCAUGCGGGGAGGAAGAGGUGGCCUCAUGGAUCGUGGUGGUCCGGGUGGAAUGUUCAGAGGUGGCCGUGGUGGAGACAG`, the log2 enrichment was 0.377.

Set 4
Target: ABI1, truncated, D143A, DHFR fusion (Arabidopsis thaliana)
Technique: DHFR PCA, deep sequencing
Medium: yeast
Setting: methotrexate growth selection, single substitutions
Added: (+)-ABA 710 µM
Reference: wild-type fitted maximum
Direction: higher = stronger binding
Starting sequence: PYL1, truncated, DHFR fusion (Arabidopsis thaliana); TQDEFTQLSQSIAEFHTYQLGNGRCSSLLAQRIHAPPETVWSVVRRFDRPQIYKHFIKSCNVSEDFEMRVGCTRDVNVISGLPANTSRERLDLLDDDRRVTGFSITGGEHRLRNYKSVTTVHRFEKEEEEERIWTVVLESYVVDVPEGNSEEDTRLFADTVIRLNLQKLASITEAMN
`E129N` — result for “relative binding score”: 105%.
Under “relative binding score”, `M176R` is recorded as 102%.
Under “relative binding score”, `E147G` is recorded as 98%.
`L164H` — result for “relative binding score”: 101%.
`S42H` — result for “relative binding score”: 97.4%.
`A13L` — result for “relative binding score”: 91.7%.
Under “relative binding score”, `A158W` is recorded as -2.35%.
For `K126D`, “relative binding score” read 109%.
`V70L`: “relative binding score” 94.6%.
For `V78E`, “relative binding score” read -0.819%.
`H122T`: “relative binding score” 81.8%.
For `I33K`, “relative binding score” read -28.6%.
`P83T`: “relative binding score” 32.3%.
Under “relative binding score”, `D153I` is recorded as 11.6%.
`M176A` — result for “relative binding score”: 102%.
`T73A` — result for “relative binding score”: 89.8%.
`T6S`: “relative binding score” 109%.
Under “relative binding score”, `E131G` is recorded as 106%.
For `V143T`, “relative binding score” read 96.8%.
For `T160E`, “relative binding score” read 60.6%.
`A158N` — result for “relative binding score”: 86.6%.
For `R132L`, “relative binding score” read 108%.
`V118K`: “relative binding score” 84.7%.
For `V142M`, “relative binding score” read 101%.
`G102I`: “relative binding score” 69.4%.

Some of these lines once more (set 4):
`T73A` — result for “relative binding score”: 89.8%.
`T6S`: “relative binding score” 109%.
Under “relative binding score”, `E131G` is recorded as 106%.
For `V143T`, “relative binding score” read 96.8%.
For `T160E`, “relative binding score” read 60.6%.
`A158N` — result for “relative binding score”: 86.6%.
For `R132L`, “relative binding score” read 108%.
`V118K`: “relative binding score” 84.7%.
